Results gathered from unrelated publications.
Parts stem from different laboratories: compare values within a part only. Substitutions count along the parent as printed.

Set 1 — method: Sort-seq; item: YFP reporter; medium: E. coli; notes: PhoQ-PhoP variant library; with: 10 µM Mg2+; reference: high Mg2+ state; reading: higher = stronger signaling
Substance: PhoQ, residues 284 288 289 292 302 303 GNNTDL
| target | fold induction |
| --- | --- |
| PhoP, residues 12 14 15 18 19 LFHKL (Escherichia coli, UniProt P23836) | 1.8 |
| PhoP, residues 12 14 15 18 19 QQAYL (Escherichia coli, UniProt P23836) | 5.47 |
| PhoP, residues 12 14 15 18 19 GMGLL (Escherichia coli, UniProt P23836) | 2.43 |

Set 2 — method: RNA Bind-n-Seq; form: RNA; medium: in vitro; concentration: 365 nM; reference: no-protein control; reading: higher = stronger binding
Target: RNA binding protein fox-1 homolog 2, RRM domain, GST-SBP tag (RBFOX2, Homo sapiens, UniProt O43251-10, residues 100-194)
Notes: natural RNA segment, single round, ends assumed
All sequences stand within: GGGAGUUCUACAGUCCGACGAUC … UGGAAUUCUCGGGUGCCAA
Target sequence (chain): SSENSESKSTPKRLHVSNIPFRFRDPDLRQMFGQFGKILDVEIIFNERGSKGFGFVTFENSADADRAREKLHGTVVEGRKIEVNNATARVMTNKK
| Sequence | RBNS enrichment (R) |
| --- | --- |
| CGAGGGCAAAGAUGCUAAAUCUUGCUUUGCAUUCAGUAAAGUGUCAAGUGAUUAAGUGUGUAUUUGUACCCUAGAUGAUAUGAACCAGCAGUCUUGUUUUGGCAUCAUCC | 1.41 |
| AUGCAAAUAGAUUUAAUUCCUAUUUACUUUAAGAAUGAAAAACAAUGUUCAUUUUCCUACCUAAACAGGGUGGUUCAACAUAAAGGCUGAUGUUGUGUCCGUUUUGUAUU | 0.432 |
| GGUGCCCAGCCUGGAGAAGGUUCUGGAGUUCAAAGCCCACGAAGGGGAGAUUGAAGACCUGGCUUUAGGGCCUGAUGGCAAGUUGGUAACCGUGGGCCGGGACCUUAAGG | 0.793 |
| CGGAGUAACUGGCUUAAGGGGUUAAUGUGAGGCCUUACACAGUUGACGCAUAUACAUGAUUCUCAUAUUUAUUGUGUAAAUUGGCUUUAAUACACUUGGAUCACAUUCAC | 0.409 |
| UACAUUAGAAGGAACCUGGUUAGAGCUCGCUCCUCCUGUCUUUGUGUGGCAUUUGUGUUCCAUUACCGGCCCCUUUAAGUAACGGCCUUCACAGCACCUUCCCAGUGGGU | 0.959 |
| CAUGUGUCCUGGAGAGAGAAGGAAGAUUAUCAUCCCUCCAUUCCUGGCCUAUGGCGAGAAAGGCUAUGGGACAGUGAUCCCCCCACAGGCCUCGCUGGUCUUUCACGUCC | 0.189 |
| GGAUCAGGGGUGAUAGGGGAGAGCAAUUACUUUGUUCACUGUAUGCACCCGCGGGGGCCUGGGAGUCCCCAUUUGCAGGUGGGUAGGGCCUCCAGCCCACACCACCCAGA | 0.44 |
| AGGCCAGGGAAGAGUGAGCUUCACCCUCAUCCCACGCUGUCCUCCUCAACCCACCAUGCUCAUCAUUCUGUCUCAUCCAUCCAUCCAUCCAUCCAUUCAUCGCCAUGUGU | 0.571 |

Set 3 — target: CCND3, cyclin fold, Cln2 fusion (human); method: yeast growth competition, sequencing; medium: yeast; notes: weak parent motif; reference: not given; reading: higher = stronger binding
Starting sequence: CDC6 docking peptide (human); TLKGRRLVFDNQL; partner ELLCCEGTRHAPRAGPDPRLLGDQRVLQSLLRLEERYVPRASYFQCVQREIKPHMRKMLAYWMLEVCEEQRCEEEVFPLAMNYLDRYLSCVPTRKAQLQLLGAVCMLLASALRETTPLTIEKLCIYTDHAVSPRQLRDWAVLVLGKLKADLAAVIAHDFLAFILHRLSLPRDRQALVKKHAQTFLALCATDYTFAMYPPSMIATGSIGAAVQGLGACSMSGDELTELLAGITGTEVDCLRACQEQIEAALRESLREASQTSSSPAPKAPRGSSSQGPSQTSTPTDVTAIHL
| Variant | normalised enrichment score |
| --- | --- |
| T1Y | 0.0384 |
| D10Y | 0.154 |
| Q12I | 0.0892 |
| D10L | 0.0328 |
| F9G | 0.0994 |
| Q12D | 0.0797 |
| T1P | 0.106 |
| K3R | 0.159 |
| N11G | 0.0499 |
| N11L | 0.125 |
| R6M | 0.134 |

Set 4 — method: protein binding microarray; form: double-stranded DNA, one strand shown; medium: in vitro; concentration: not given; reference: not given; reading: higher = stronger binding
Target: Histone acetyltransferase KAT6A, both winged helices, GST fusion (KAT6A, Homo sapiens, UniProt Q92794, residues 1-181)
Notes: 8-mer, flanks averaged, mean of 2 arrays, mostly near background
Target sequence (chain): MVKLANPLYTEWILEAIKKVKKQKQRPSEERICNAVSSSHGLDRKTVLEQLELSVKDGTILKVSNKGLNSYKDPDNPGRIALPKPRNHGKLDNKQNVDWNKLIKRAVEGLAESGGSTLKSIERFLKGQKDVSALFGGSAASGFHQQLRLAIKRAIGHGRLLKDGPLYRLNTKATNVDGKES
| Sequence | E-score |
| --- | --- |
| CCGAATCA | -0.0376 |
| CAAGGGAC | -0.0917 |
| ACATCATA | -0.0457 |
| GAATGTAC | 0.0802 |
| CCACCGTC | 0.0737 |
| AAAGGCTG | -0.101 |
| GAACAGAA | 0.0138 |
| ACGGTAGT | 0.0963 |
| GTCTGCTA | -0.181 |
| CCGGCGCA | 0.345 |
| AATTCTGG | -0.0826 |
| CCTCTCCG | 0.0204 |

Repeated from above (set 3):
| Variant | normalised enrichment score |
| --- | --- |
| Q12D | 0.0797 |
| T1P | 0.106 |
| K3R | 0.159 |
